# Assay results pooled from the literature.
# Compare with care: the assays were run in different laboratories. Values joined by “and” are separate records of one study, mostly repeats; a detail may differ. ± marks the error that the study gave.
# PRKACG: cAMP-dependent protein kinase catalytic subunit gamma (PRKACG, Homo sapiens, UniProt P22612)
# Sequence of UniProt Q8VDG7 (whole entry, looked up): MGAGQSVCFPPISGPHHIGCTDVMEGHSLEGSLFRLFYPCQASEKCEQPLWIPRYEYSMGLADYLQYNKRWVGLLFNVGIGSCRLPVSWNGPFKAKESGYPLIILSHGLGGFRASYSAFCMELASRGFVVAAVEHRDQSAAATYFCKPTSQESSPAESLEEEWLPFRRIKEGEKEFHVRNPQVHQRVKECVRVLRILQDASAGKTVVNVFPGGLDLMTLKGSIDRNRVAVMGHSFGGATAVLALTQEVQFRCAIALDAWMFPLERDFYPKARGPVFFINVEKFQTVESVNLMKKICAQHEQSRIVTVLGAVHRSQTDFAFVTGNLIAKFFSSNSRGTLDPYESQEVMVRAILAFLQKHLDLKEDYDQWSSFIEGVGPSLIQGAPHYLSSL
# Sequence of UniProt Q7M759 (whole entry, looked up): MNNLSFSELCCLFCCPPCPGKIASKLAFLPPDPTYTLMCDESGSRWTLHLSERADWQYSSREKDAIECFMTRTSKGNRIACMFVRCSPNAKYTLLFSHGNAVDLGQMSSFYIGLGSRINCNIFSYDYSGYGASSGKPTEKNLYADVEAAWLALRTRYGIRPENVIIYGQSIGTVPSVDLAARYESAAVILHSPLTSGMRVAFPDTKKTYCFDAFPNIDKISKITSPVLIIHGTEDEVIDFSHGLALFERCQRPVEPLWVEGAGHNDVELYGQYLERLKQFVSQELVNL
# Sequence of UniProt P22612 (whole entry, looked up): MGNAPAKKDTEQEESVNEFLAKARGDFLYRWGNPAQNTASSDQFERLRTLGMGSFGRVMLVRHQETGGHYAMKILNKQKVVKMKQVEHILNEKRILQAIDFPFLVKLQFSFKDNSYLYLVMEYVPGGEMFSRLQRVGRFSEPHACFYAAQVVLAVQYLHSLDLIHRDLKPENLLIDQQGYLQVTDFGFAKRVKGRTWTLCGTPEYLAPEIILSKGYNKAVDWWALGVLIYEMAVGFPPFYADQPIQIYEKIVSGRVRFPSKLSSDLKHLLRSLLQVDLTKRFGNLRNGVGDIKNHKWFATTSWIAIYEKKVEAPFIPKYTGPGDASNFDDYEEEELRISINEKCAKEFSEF
# Sequence of UniProt Q00987 (whole entry, looked up): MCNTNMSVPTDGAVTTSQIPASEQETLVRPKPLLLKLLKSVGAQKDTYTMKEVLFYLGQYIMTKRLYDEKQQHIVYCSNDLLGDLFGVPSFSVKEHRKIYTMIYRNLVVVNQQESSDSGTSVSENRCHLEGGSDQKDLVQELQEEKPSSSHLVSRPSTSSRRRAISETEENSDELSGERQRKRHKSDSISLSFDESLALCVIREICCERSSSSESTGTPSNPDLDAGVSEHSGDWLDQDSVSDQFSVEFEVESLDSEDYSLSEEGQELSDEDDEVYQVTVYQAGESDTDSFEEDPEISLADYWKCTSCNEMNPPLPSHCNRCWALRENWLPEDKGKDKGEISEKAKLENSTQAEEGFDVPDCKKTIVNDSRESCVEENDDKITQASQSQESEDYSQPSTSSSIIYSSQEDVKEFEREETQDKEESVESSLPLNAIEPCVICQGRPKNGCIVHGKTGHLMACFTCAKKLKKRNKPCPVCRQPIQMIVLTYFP
# Sequence of UniProt Q6DWJ6 (whole entry, looked up): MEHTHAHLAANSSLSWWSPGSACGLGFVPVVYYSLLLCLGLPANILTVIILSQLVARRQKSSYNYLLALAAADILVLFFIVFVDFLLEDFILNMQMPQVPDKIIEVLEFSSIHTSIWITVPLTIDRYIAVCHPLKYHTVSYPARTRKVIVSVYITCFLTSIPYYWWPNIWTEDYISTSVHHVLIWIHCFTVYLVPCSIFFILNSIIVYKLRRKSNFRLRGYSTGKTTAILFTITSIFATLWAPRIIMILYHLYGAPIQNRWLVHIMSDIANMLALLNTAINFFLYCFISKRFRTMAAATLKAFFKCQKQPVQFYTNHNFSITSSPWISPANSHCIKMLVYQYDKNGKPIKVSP
# Sequence of UniProt Q9ULC6 (whole entry, looked up): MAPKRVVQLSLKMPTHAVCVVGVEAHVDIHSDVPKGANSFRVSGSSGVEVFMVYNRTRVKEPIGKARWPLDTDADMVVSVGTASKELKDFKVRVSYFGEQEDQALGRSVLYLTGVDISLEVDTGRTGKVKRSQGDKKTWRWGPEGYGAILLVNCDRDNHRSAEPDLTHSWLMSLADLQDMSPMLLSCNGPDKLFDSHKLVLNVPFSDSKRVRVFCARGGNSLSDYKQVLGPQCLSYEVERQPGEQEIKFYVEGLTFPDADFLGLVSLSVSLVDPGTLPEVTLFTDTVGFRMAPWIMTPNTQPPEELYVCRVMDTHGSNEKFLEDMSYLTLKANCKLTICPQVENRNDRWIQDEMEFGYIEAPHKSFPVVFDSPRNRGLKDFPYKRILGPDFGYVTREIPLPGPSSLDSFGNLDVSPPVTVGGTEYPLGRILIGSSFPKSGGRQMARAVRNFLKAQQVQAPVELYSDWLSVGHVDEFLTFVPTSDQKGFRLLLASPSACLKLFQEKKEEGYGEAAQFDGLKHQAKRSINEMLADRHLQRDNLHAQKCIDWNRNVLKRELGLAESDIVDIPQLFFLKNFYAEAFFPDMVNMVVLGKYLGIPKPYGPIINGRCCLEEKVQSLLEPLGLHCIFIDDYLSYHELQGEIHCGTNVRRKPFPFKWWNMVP
# Sequence of UniProt P0A988 (whole entry, unmodified, looked up): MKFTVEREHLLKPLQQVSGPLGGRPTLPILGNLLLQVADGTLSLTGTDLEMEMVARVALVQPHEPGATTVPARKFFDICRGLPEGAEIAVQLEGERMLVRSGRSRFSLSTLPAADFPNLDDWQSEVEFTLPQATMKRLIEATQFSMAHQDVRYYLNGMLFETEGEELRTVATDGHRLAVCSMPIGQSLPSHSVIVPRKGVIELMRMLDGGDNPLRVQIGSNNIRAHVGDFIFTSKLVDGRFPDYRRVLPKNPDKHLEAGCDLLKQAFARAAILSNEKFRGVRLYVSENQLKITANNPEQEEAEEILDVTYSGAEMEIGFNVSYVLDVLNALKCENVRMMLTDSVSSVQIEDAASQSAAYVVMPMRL
# Sequence of UniProt Q9UH17 (whole entry, looked up): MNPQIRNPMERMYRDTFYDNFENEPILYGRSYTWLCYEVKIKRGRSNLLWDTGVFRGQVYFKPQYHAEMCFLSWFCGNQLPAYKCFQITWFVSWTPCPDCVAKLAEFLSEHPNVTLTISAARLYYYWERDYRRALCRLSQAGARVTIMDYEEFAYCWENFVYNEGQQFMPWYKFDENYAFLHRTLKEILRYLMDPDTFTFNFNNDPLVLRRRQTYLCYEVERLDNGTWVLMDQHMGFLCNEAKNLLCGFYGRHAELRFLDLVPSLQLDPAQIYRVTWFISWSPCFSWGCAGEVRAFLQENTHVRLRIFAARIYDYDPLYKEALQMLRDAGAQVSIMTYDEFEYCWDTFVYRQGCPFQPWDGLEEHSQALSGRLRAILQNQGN
# Sequence of UniProt Q704Y3 (whole entry, unmodified, looked up): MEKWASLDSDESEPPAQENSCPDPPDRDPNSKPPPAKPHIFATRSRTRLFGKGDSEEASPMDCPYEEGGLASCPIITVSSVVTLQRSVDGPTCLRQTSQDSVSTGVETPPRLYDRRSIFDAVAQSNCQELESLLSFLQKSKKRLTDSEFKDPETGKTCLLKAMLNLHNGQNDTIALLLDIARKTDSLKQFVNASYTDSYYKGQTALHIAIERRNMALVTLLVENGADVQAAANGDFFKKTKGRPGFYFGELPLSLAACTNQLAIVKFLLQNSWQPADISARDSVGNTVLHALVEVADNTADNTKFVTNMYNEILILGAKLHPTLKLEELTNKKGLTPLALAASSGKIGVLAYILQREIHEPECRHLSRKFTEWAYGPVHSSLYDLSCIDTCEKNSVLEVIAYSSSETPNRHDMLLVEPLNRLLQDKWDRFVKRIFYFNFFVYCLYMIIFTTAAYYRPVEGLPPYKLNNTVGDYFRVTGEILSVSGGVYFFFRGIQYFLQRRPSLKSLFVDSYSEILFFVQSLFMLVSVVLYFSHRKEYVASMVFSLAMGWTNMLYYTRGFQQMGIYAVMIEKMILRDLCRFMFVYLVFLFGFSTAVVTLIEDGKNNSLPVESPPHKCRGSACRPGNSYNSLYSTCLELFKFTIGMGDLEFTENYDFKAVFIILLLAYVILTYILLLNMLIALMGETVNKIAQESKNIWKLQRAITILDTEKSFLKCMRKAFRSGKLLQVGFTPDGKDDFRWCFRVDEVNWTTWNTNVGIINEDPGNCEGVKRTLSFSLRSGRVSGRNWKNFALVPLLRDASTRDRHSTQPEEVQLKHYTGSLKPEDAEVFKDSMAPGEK
# Sequence of UniProt P70627 (whole entry, looked up): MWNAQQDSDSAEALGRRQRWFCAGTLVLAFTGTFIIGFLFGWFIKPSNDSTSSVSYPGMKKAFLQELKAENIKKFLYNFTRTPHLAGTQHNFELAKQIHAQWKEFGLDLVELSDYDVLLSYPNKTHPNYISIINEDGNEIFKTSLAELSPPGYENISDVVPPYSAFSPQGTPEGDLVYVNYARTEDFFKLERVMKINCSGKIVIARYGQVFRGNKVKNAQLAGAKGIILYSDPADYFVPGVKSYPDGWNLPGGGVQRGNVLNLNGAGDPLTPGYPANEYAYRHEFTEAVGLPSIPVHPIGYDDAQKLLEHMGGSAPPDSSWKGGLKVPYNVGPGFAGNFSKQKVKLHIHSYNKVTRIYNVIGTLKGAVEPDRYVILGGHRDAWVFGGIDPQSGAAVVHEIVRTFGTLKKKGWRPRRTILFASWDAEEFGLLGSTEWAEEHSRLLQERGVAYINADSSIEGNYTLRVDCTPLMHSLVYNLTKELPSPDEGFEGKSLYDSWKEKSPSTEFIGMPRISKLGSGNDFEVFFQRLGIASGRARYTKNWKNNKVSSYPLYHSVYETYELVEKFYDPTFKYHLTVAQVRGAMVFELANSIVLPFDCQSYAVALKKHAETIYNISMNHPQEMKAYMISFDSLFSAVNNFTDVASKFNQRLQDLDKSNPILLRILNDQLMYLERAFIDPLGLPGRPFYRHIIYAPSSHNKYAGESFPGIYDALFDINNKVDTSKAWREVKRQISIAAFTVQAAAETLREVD
SMILES,target,assay,system,setting,how to read,measurement,value
CC(C)CC(O)(CC(C)C)c1cn(C(=O)N2CCCC2)nn1,"Platelet-activating factor acetylhydrolase 2, cytoplasmic (Mus musculus, UniProt Q8VDG7)","probe labelling, inhibitor, competitive ABPP-SILAC",mouse T cells,"concentration not given, 4 h, single peptide","baseline: treated over DMSO cells, lower = stronger inhibition",SILAC activity ratio,0.92 and 1.02 and 0.88 and 1.12 and 1.1
CCCCC/C=C\C/C=C\C/C=C\C/C=C\CCCC(=O)NCCc1ccc(O)c(O)c1,"Trpv1 (Mus musculus, UniProt Q704Y3, N552L)","ion current, agonist, whole-cell patch clamp",,N552L,,Hill coefficient,2.39 ± 0.41
CC[C@H](C)[C@H](NC(=O)[C@H](CCCNC(=N)N)NC(=O)[C@H](CCCNC(=N)N)NC(=O)[C@H](CC(C)C)NC(=O)[C@H](Cc1ccccc1)NC(=O)CNC(=O)CNC(=O)[C@@H](N)Cc1ccc(O)cc1)C(=O)N[C@@H](CCCNC(=N)N)C(=O)N1CCC[C@H]1C(=O)N[C@@H](CCCCN)C(=O)N[C@@H](CC(C)C)C(=O)N[C@@H](CCCCN)C(=O)O,"GPR139 (Homo sapiens, UniProt Q6DWJ6)","Gαq activation, agonist, BRET",HEK293T/17,40 µM,,Emax,81.5% and 81.3%
CCNC(=S)NN=Cc1c2ccccc2cc2ccccc12.Cc1ccc(C(C)C)cc1.[Cl-].[Cl-].[Ru+2],"Albumin (ALB, Homo sapiens, UniProt P02768)","binding, van't Hoff, modified Stern-Volmer",,concentration not given,,enthalpy change (ΔH°),11.5 kcal/mol
O=C1NC(=O)c2c1c1cc(F)c[n+]3c1c1c2c2cc(O)ccc2[n]1[Ru-4]312([N]=C=S)[S+]3CC[S+]1CC[S+]2CC3 (stereo not shown),"MST1R (Homo sapiens, UniProt Q04912)",enzyme activity,,"100 nM, human enzyme, added: 10 µM ATP",baseline: untreated,remaining activity,92%
C=CC(=O)Nc1cc(-c2ccc(C(=O)N3CCCC(O)(CC)C3)cc2)ccc1F (stereo not shown),"DNA dC->dU-editing enzyme APOBEC-3B, C-terminal domain (Homo sapiens, UniProt Q9UH17)","covalent adduct, intact protein MS",,"1 h, 20-fold excess, 500 µM",,unmodified protein,65% and 56%
N[C@H](C(=O)N1CCCC1)C1CCN(c2nccc3c(-c4ncc(Cl)cc4Cl)cccc23)CC1,"PADI1 (Homo sapiens, UniProt Q9ULC6)",enzyme activity,,"0.2458 µM, added: Ca2+ 0.25 mM",,kcat,0.139 s⁻¹ and 0.15 s⁻¹
COCC1CCCCN1C(=O)n1cc(C(O)(c2ccccc2)c2ccccc2)nn1 (stereo not shown),"Alpha/beta hydrolase domain-containing protein 17B (Abhd17b, Mus musculus, UniProt Q7M759)","probe labelling, inhibitor, competitive ABPP-SILAC, refers to: Fam108b1",mouse T cells,"concentration not given, 4 h, single peptide","baseline: treated over DMSO cells, lower = stronger inhibition",SILAC activity ratio,1.1 and 1.17 and 1.33
CN(C)[C@H]1C[C@@]23CC[C@@]4(O2)C(=CC[C@]2(C)[C@@H](c5ccc6ccncc6c5)CC[C@H]24)C=C3[C@@H](O)[C@@H]1O,"HCK (Homo sapiens, UniProt P08631)","ATP probe labelling, inhibitor, KiNativ profiling",,0.1 µM,,inhibition,-6.1%
Cc1cc(-c2ccc3ccccc3c2)nnc1NCCN1CCN(C)CC1,"Slc6a2 (Rattus norvegicus, UniProt Q9WTR4)",monoamine uptake,rat synaptosomes,concentration not given,,uptake inhibition,negative
[CH3][Ti+2][O]C(=O)c1ccc([S][Au][PH](c2ccccc2)(c2ccccc2)c2ccccc2)cc1.c1cc[cH-]c1.c1cc[cH-]c1,PRKACG,"kinase activity, HotSpot radiometric",,"1 µM, added: ATP 10 µM",baseline: vehicle,remaining activity,104% and 111%
CCOC(=O)[C@@H]1Cc2c(cc([N+](=O)[O-])cc2[N+](=O)[O-])[C@H](O)[C@]12C(=O)Nc1ccc(Br)cc12,"PIK3C2B (Homo sapiens, UniProt O00750)","binding, competition with immobilised ligand",,0.1 µM,,remaining binding,99%
CS(C)(=O)=Nc1ccc(-c2ccc(-c3nc4cc(O[C@@H]5CO[C@H]6[C@@H]5OC[C@H]6O)[nH]c4cc3F)cc2)cc1,"MET (Homo sapiens, UniProt P08581, Y1230H)","enzyme activity, inhibitor",,10 µM,,inhibition,-26%
CC(C)OC(=O)OCOC(=O)C(CCC(=O)O)CP(=O)(OCOC(=O)OC(C)C)OCOC(=O)OC(C)C (stereo not shown),"Glutamate carboxypeptidase 2 (Rattus norvegicus, UniProt P70627)",PET,"rat, kidney","intravenous, 10 mg/kg, 30 min before tracer, added: [68Ga]Ga-PSMA tracer",baseline: controls,reduction of tracer uptake,69%
C#CCCCCOc1ccc2c(c1)CCCN2C(=O)CCl,"Cytoskeleton-associated protein 4 (Homo sapiens, UniProt Q07065)",mass spectrometry profiling,Ramos cell lysate,"100 µM over 10 µM, UniProt Q07065",baseline: high over low concentration,reactivity ratio,0.959
CC(=O)N[C@@H](CCC(N)=O)C(=O)N[C@@H](CC1CCCCC1)C(=O)N[C@@H](CNC(=O)CCl)C(=O)N[C@@H](CC(C)C)C(=O)N[C@@H](Cc1ccccc1)C(=O)O,"Beta sliding clamp (Escherichia coli, UniProt P0A988)","binding, isothermal titration calorimetry",,25 °C,,ΔH,-11.7 kcal/mol
CC[C@H](C)[C@@H]1NC(=O)[C@H](CC(C)C)NC(=O)CNC(=O)[C@H](CCCNC(=N)N)NC(=O)[C@H](Cc2c[nH]c3ccccc23)NC(=O)[C@H](CCSC)NC(=O)[C@H](CO)NC(=O)[C@H](CCC(=O)O)NC(=O)[C@H](Cc2ccccc2)NC(=O)[C@H](CC(=O)O)NC(=O)[C@H]([C@@H](C)O)NC(=O)CNC(=O)[C@H](CCC(=O)O)NC(=O)[C@H]([C@@H](C)O)NC(=O)CNC(=O)[C@H](CC(=O)O)NC1=O,"MDM2 (Homo sapiens, UniProt Q00987)","MDM2-ligand binding, inhibitor, AlphaLISA competition",,"3.125 µM, added: GST-tagged MDM2 ligand",lower = stronger inhibition,AlphaLISA signal,2260 a.u. and 2240 a.u.
CC(C)[C@H]1NC(=O)C[C@H]2/C=C/CCSSC[C@@H](NC1=O)C(=O)N[C@H](Cc1cccc3ccccc13)C(=O)NCC(=O)O2,PRKACG,"enzyme activity, inhibitor",,10 µM,,inhibition,-0.2%
C[C@H](NCc1ccc(-c2ccc(C(F)(F)F)cc2)cc1)C(N)=O,"PAK1 (Homo sapiens, UniProt Q13153)","cell-free assay, competition with immobilised ligand",,1 µM,,inhibition,6%
